Published values pooled from the literature.
Protocols differ between the studies behind these lines. Several values in a cell are separate wells, animals, samples, runs or records. ± gives the spread as reported. In brackets after ≈: the same amount, converted by molar mass.

| Structure (SMILES) | organism | assay | test system | conditions | how to read | measurement | result |
| --- | --- | --- | --- | --- | --- | --- | --- |
| CNC(C)C1CCC(N)C(OC2C(N)CC(N)C(OC3OCC(C)(O)C(NC)C3O)C2O)O1 (stereo not shown) | Acinetobacter baumannii |  | 19606, biofilm | 50 µg/mL, without HNP1 |  | survival | 0% and 1.04% |
| Cn1c(=O)ccc2ccc(F)c(CCNC[C@H]3CN(c4cnc5c(n4)NC(=O)CO5)C(=O)O3)c21 | Klebsiella aerogenes |  |  |  |  | MIC50 | 0.25 µg/mL (≈ 0.534 µM) |
| COc1cc2ccc3oc([N+](=O)[O-])cc3c2cc1OC | Mycolicibacterium aurum | REMA | ATCC 23366 |  |  | MIC90 | 1 µg/mL (≈ 3.66 µM) |
| N=C(N)c1ccc(OCCC(CCOc2ccc(C(=N)N)cc2)c2ccccc2)cc1 (stereo not shown) | Escherichia coli | checkerboard | BW25113 mcr-1 plasmid | unit not given, with: rifampicin | lower = stronger synergy | FICI | ≤ 0.063 |
| CC(C)(C)Oc1ccc(CC2NC(=O)C(C(=O)NC(C(=O)NC3C(=O)N4C3SC(C)(C)C4C(=O)O)c3ccccc3)=C2O)cc1 (stereo not shown) | Escherichia coli | broth microdilution | isolate IU, CTX-M-14, TEM-1 | with: clavulanic acid 6 µg/mL |  | MIC | > 200 µg/mL |
| C[C@@H]1O[C@@H](O[C@H]2C[C@@H](O)[C@]3(CO)[C@H]4[C@H](O)C[C@]5(C)[C@@H](C6=CC(=O)OC6)CC[C@]5(O)[C@@H]4CC[C@]3(O)C2)[C@H](O)[C@H](O)[C@H]1O | Oncopeltus fasciatus |  |  | diet, concentration not given |  | time to adulthood | 23.3 days |
| CC[C@H](C)[C@H](NC(=O)[C@H](C)NC(=O)[C@H](CCCCN)NC(=O)[C@H](CC(C)C)NC(=O)[C@H](C)NC(=O)[C@@H](NC(=O)[C@H](Cc1c[nH]cn1)NC(=O)[C@H](CC(C)C)NC(=O)[C@@H](NC(=O)[C@@H](NC(=O)[C@H](CCCCN)NC(=O)[C@H](C)NC(=O)[C@H](C)NC(=O)[C@H](CO)NC(=O)[C@H](CCCCN)NC(=O)[C@H](Cc1ccccc1)NC(=O)[C@@H](NC(=O)[C@H](CCCCN)NC(=O)[C@H](CC(C)C)NC(=O)[C@H](Cc1ccccc1)NC(=O)[C@H](CO)NC(=O)[C@H](CCCCN)NC(=O)[C@H](Cc1c[nH]c2ccccc12)NC(=O)[C@H](CCCCN)NC(C)=O)[C@@H](C)O)[C@@H](C)O)C(C)C)[C@@H](C)O)C(=O)N[C@@H](CO)C(=O)N[C@@H](CO)C(N)=O | Enterococcus faecalis |  |  | 40 strains |  | MIC50 | 16 µg/mL (≈ 5.45 µM) |
| O=C(NC1CCC(CN2CCC(c3c[nH]c4ccccc34)CC2)CC1)c1[nH]c(=O)[nH]c(=O)c1F (stereo not shown) | Plasmodium yoelii |  | 17XL | 384-well |  | IC50 | > 20 µM |
| O=[N+]([O-])c1cc2c(ccc3cc(Br)ccc32)o1 | Mycolicibacterium aurum | REMA | ATCC 23366 |  |  | MIC90 | > 32 µg/mL |
| Cc1ncc([N+](=O)[O-])n1CCO | Prevotella spp. | bacterial growth |  |  |  | MIC90 | 1 µg/mL (≈ 5.84 µM) |
| O=C(O)c1cccc2ccccc12 | Tetrahymena pyriformis and Klebsiella pneumoniae | virulence in co-culture |  |  |  | IC50 | 2.5 µM |
| COc1cccc(C(=O)NN(C(=O)c2cc(C)cc(C)c2)C(C)(C)C)c1C | Anopheles gambiae s.l. |  | resistant | tarsal contact, dose not given, no blood meal, without RME | baseline: control | lifespan | no effect |
| COc1cnc(OC)n2nc(NS(=O)(=O)c3c(OCC(F)F)cccc3C(F)(F)F)nc12 | Echinochloa crus-galli |  | greenhouse | postemergence, 150 g ai/ha, 21 days |  | fresh weight inhibition | 94.7 ± 1.21% |
| O=C(C[n+]1cc(-c2ccc(Cl)cc2)n2c1CCC2)Nc1ccc(Cl)c(Cl)c1 | Tetrahymena pyriformis and Klebsiella pneumoniae | virulence in co-culture |  |  |  | IC50 | 10 µM |
| CS(=O)(=O)CCCn1c(Cn2c(=O)n(CC(F)(F)F)c3ccncc32)cc2cc(Cl)ccc21 | respiratory syncytial virus | RT-qPCR | hospitalized infants 1-24 months, nasal swab | oral, 9, 6 or 5 mg/kg daily, day 3, high dose by age cohort | baseline: placebo | LS mean difference vs placebo | -1.91 log10 copies/mL |
| Cc1[nH]c(/C=C2\N=C(c3ccc[nH]3)C=C2OC(C)C)cc1Cc1ccc(OC(F)(F)F)cc1.Cl | Plasmodium yoelii |  | CF1 mouse | oral, 80 mg/kg single dose, day 5 |  | parasitaemia reduction | 100% |
| O=[N+]([O-])c1cnc2ccccc2c1O | Tetrahymena pyriformis and Klebsiella pneumoniae | virulence in co-culture |  |  |  | IC50 | 3.45 µM |
| COC(=O)N[C@H](C(=O)N1CCC[C@H]1c1ncc(-c2ccc(-c3ccc(-c4cnc([C@@H]5CCCN5C(=O)[C@@H](NC(=O)OC)C(C)C)[nH]4)cc3)cc2)[nH]1)C(C)C | Hepatitis C virus |  | replicon cells | 50% effect level, with: NS5B palm site II inhibitor, ratio 1:1 |  | combination index | 1.06 |
| CC1=C(C)/C(=C/c2cc(Cc3ccc(OC(F)(F)F)cc3)c(C)[nH]2)N=C1c1ccc[nH]1.Cl | Plasmodium yoelii |  | CF1 mouse | oral, 80 mg/kg single dose, day 5 |  | parasitaemia reduction | 100% |
| CNCCN(C)C(=O)Oc1c(Cl)c(C)nc(C)c1-c1ccc(Oc2ccc(OC(F)(F)F)cc2)cc1 | Plasmodium yoelii |  | 17XL | 384-well |  | IC50 | 0.269 ± 0.034 µM |
| COc1cc(NC(C)CCCN)c2ncccc2c1 (stereo not shown) | Dengue virus type 2 | replicon Renilla luciferase | BHK-21 DENV2 replicon cells | 50 µM, 24 h |  | inhibition | < 0% |
| COc1nc(SC)nnc1C | Tetrahymena pyriformis and Klebsiella pneumoniae | virulence in co-culture |  |  |  | IC50 | > 20 µM |
| CSCC[C@H](NC(=O)[C@H](CC(C)C)NC(=O)[C@@H](NC(=O)[C@H](Cc1ccccc1)NC(=O)[C@H](CCCCN)NC(=O)[C@H](CCCNC(=N)N)NC(=O)[C@@H](NC(=O)[C@H](Cc1ccc(O)cc1)NC(=O)[C@H](CCCNC(=N)N)NC(=O)[C@@H](N)CCCNC(=N)N)C(C)C)C(C)C)C(=O)N[C@@H](CCCNC(=N)N)C(=O)O | Staphylococcus haemolyticus |  |  |  |  | MBC | 32 µg/mL (≈ 21 µM) |
| CCc1c([N+](=O)[O-])oc2ccc3ccccc3c12 | Mycolicibacterium aurum | REMA | ATCC 23366 |  |  | MIC90 | 1 µg/mL (≈ 4.15 µM) |
| Fc1cccc(Cn2nnc3c2CCN(c2ccc(C(F)(F)F)cc2)C3)c1 | human adenovirus 2 | viral replication | HEL |  |  | EC50 | > 100 µM |
